Published values from different studies.
A part holds a random share of what one study measured.
UniProt O95747, sequence (whole entry, looked up): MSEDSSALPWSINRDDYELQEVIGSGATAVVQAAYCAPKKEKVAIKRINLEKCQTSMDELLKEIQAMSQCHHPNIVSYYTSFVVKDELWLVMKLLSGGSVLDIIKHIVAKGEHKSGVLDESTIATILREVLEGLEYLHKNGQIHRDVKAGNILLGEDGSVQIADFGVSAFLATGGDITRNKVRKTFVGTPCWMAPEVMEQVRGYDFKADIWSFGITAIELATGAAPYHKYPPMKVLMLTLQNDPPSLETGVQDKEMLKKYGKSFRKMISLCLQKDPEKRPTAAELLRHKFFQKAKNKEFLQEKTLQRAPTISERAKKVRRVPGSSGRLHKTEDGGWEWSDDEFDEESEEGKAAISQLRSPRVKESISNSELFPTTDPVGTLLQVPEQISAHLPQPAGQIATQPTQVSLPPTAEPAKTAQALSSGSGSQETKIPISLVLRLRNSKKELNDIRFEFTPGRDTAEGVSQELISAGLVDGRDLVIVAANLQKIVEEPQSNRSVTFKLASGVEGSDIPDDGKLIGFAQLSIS
UniProt P53779, sequence (whole entry, looked up): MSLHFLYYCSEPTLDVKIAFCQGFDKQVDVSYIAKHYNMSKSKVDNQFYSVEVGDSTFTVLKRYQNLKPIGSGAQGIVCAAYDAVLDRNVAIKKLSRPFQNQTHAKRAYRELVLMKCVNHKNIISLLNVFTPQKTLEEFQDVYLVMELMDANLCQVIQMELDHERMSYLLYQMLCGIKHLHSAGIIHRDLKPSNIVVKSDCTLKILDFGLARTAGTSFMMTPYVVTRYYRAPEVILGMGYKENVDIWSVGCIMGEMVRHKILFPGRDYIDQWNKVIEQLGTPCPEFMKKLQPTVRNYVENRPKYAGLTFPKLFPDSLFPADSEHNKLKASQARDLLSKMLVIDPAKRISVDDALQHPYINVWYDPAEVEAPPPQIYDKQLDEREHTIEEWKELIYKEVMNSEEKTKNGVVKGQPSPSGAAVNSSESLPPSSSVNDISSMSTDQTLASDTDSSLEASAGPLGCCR
UniProt Q9BZL6, sequence (whole entry, looked up): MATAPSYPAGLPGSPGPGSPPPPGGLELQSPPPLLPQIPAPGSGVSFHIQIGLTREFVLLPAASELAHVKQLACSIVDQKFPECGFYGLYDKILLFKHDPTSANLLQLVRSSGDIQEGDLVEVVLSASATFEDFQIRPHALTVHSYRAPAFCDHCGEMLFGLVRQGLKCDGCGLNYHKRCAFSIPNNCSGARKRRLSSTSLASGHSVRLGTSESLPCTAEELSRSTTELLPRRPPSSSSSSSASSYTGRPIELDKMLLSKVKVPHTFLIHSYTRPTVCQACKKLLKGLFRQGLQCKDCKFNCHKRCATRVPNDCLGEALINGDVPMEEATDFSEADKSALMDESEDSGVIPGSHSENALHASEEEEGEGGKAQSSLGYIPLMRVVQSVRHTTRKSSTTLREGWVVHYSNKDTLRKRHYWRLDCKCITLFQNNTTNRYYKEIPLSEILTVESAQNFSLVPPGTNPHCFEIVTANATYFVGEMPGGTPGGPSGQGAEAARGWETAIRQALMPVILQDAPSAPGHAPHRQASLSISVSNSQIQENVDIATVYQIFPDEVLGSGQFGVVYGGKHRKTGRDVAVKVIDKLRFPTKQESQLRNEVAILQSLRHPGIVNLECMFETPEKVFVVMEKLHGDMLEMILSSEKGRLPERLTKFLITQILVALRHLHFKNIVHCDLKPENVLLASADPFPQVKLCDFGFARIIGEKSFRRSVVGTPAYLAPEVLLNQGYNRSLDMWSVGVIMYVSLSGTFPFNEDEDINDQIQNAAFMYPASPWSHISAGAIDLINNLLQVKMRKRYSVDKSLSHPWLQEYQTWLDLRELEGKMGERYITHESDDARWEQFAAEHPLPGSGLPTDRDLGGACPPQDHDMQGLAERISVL
UniProt O75582, sequence (whole entry, looked up): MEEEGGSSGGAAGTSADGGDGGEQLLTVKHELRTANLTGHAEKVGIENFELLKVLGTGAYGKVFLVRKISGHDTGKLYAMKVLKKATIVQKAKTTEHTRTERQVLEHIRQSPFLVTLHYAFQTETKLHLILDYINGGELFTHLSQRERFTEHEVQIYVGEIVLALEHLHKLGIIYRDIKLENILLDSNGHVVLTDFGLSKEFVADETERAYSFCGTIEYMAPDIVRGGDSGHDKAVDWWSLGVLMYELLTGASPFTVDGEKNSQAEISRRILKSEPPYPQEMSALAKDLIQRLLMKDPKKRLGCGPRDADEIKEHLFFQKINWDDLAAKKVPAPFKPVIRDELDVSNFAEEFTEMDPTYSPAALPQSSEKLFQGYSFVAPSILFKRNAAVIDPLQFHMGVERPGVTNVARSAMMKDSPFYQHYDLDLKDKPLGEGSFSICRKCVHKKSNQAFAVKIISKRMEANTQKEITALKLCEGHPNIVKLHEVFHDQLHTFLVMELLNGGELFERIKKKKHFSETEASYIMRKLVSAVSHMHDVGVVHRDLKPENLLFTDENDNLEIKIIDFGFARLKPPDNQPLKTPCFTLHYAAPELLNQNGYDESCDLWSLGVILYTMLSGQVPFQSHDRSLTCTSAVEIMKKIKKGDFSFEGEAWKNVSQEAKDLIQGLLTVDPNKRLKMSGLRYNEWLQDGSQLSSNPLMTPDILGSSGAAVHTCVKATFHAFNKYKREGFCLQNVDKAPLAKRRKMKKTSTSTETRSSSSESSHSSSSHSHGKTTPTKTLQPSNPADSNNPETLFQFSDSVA
UniProt P49761, sequence (whole entry, looked up): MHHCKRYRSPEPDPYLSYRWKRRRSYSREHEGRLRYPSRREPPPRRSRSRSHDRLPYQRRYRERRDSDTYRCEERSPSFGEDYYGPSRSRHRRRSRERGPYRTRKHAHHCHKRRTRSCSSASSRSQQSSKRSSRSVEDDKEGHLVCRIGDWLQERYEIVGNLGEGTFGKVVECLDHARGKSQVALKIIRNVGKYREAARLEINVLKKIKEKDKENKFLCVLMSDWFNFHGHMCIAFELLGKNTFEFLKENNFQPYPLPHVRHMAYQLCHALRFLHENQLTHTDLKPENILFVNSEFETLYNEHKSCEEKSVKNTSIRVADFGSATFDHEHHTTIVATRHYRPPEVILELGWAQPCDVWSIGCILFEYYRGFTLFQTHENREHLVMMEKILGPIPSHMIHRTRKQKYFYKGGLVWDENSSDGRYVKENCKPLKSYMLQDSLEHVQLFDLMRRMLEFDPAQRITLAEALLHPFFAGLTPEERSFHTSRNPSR

Set 1
Organism: Sarcocystis neurona
Read-out: parasite growth
Concentration: 10 µM
Time: 96 h
Notes: first screen
Baseline: untreated
Endpoint: log2 fold change
O=c1cnn([C@@H]2O[C@H](CO)[C@@H](O)[C@H]2O)c(=O)[nH]1: 0.21
O=c1[nH]cnc2c1ncn2[C@H]1CC[C@@H](CO)O1: -0.09
Clc1ccc(COC(Cn2ccnc2)c2ccc(Cl)cc2Cl)cc1 (stereo not shown): 0.06
O=C1NC(=O)C(c2ccccc2)(c2ccccc2)N1: -0.31
COc1ccc(CC2c3cc(OC)c(OC)cc3CC[N+]2(C)CCC(=O)OCCCCCOC(=O)CC[N+]2(C)CCc3cc(OC)c(OC)cc3C2Cc2ccc(OC)c(OC)c2)cc1OC (stereo not shown): -0.21
O=C(O)c1cc(/N=N/c2ccc(S(=O)(=O)Nc3ccccn3)cc2)ccc1O: 0.05
CC(=O)SCC(Cc1ccccc1)C(=O)NCC(=O)OCc1ccccc1 (stereo not shown): 0.11
CN(C)c1ccc(O)c2c1C[C@H]1C[C@H]3[C@H](N(C)C)C(O)=C(C(N)=O)C(=O)[C@@]3(O)C(O)=C1C2=O: -1.36
CCC[C@@H]1C[C@@H](C(=O)N[C@@H]([C@H]2O[C@H](SC)[C@H](O)[C@@H](O)[C@H]2O)[C@@H](C)O)N(C)C1: -0.44
CCOC(=O)[C@H](CCc1ccccc1)N[C@@H](C)C(=O)N1Cc2ccccc2C[C@H]1C(=O)O: 0.3
O=[N+]([O-])c1cccc2cn[nH]c12: -0.0273
CCCOc1ccc(C(=O)OCCN(CC)CC)cc1N: 0.35
O=C1CC[C@@H](C(=O)N2CSC[C@H]2C(=O)O)N1: 0.12

Set 2
SMILES: COc1cc(C(=O)N2CCC(N3CCN(C)CC3)CC2)ccc1Nc1ncc2c(n1)N(C)c1ccccc1C(=O)N2C
Endpoint: inhibition
Receptor tyrosine-protein kinase erbB-4 (Erbb4, Mus musculus, UniProt Q61527); KiNativ profiling; mouse brain lysate; 0.1 µM, LYS1 site, added: ADP acyl phosphate probe: -2.1%
AMPKa1 and AMPKa2 (mouse); probe labelling, KiNativ, measured: VAVkILNR peptide, Lys1 site; brain tissue lysate (mouse); 0.1 µM, added: ATP acyl-phosphate probe: -4%
mouse CaMK1δ; probe labelling, KiNativ ATP probe; mouse brain lysate; 1 µM, LYS1 site LFAVkCIPK: -14.3%
human PBMC; probe labeling, inhibitor, KiNativ profiling, measured: DIkGANILR; cell lysate; 1 µM, LYS2 site, added: ADP acyl-phosphate probe: 2.1%
PKD2 human; KiNativ profiling; human PBMC; 1 µM, LYS1 site, added: ATP acyl phosphate probe: 11.9%
PIP5K3 human; KiNativ profiling; human PBMC; 1 µM, ATP site, added: ADP acyl phosphate probe: 13.5%
MAP3K2 (mouse); KiNativ ADP probe; mouse brain tissue; 0.1 µM, probe site LYS1: -11.9%
PIP4K2C mouse; KiNativ profiling; mouse brain lysate; 1 µM, ATP site, added: ADP acyl phosphate probe: -1.5%
NEK1 (mouse); probe labelling, KiNativ, measured: DIkSQNIFLTK peptide, LYS2 site; brain tissue lysate (mouse); 0.1 µM, added: ATP acyl-phosphate probe: -12.4%

Set 3
Target: SRSF protein kinase 1 (SRPK1, Homo sapiens, UniProt Q96SB4)
UniProt Q96SB4, sequence (whole entry, looked up): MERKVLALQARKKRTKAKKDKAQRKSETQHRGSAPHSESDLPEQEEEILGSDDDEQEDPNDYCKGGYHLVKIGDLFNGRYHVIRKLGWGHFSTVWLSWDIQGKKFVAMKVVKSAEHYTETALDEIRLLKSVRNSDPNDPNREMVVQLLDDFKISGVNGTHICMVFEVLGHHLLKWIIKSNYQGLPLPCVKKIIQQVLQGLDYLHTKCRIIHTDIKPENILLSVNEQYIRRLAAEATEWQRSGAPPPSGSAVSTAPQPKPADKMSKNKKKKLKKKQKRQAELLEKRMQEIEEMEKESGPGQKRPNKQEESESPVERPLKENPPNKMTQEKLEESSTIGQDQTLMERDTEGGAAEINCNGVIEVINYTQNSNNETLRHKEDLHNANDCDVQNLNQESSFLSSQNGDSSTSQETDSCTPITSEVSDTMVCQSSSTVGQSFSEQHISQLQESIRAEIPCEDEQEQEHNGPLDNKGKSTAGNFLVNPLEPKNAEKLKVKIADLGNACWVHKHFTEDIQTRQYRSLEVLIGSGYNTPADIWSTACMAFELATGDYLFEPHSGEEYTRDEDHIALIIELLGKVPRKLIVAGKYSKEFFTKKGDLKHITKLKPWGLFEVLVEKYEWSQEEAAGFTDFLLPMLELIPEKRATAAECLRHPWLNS
Read-out: enzyme activity
Action: inhibitor
Concentration: 0.5 µM
Baseline: control
Endpoint: remaining activity
CC(C)[C@H](CO)Nc1nc(Nc2cc(N)cc(Cl)c2)c2ncn(C(C)C)c2n1: 62.1%
Cn1c2ccccc2c2c3c(c4c5ccccc5n(CCC#N)c4c21)CNC3=O: 98.3%
O=c1c2ccccc2[nH]c(=S)n1CCN1CCC(=C(c2ccc(F)cc2)c2ccc(F)cc2)CC1: 97.8%
CCOC(=O)c1c(C)[nH]c(/C=C2\C(=O)Nc3ccccc32)c1C: 95.4%
O=C(Nc1cccc(Nc2cc(Nc3cccc(C(F)(F)F)c3)ncn2)c1)C1CC1: 86.4%
Cc1ccc(Nc2nccc(N(C)c3ccc4c(C)n(C)nc4c3)n2)cc1S(N)(=O)=O: 100%
N#CC(C#N)=C(N)/C(C#N)=C/c1ccc(O)cc1: 100%
NCCNc1ncc(C(N)=O)c(Nc2cccc(C(F)(F)F)c2)n1: 94.5%
COc1cc2ncnc(Nc3ccc(Oc4ccccc4)cc3)c2cc1OC: 104%
Cc1nc(-c2ccccc2)c(-c2ccncc2)o1: 101%
COc1cc2nccc(Oc3ccc(NC(=S)NC(=O)c4ccccc4C)cc3)c2cc1OC: 98%
CN(C)c1ccc(C=C2C(=O)Nc3ccccc32)cc1: 95.4%
O=S(=O)(c1cccc2cnccc12)N1CCCNCC1: 92.6%
COc1ccc(C(=O)Nc2sc3c(c2C(N)=O)CCCC3)cc1OC: 82.6%
Oc1ccc(-c2nc(-c3ccncc3)c(-c3ccc(F)cc3)[nH]2)cc1: 109%

Set 4
SMILES: CN(c1ccnc(CNc2nc(Nc3ccc4c(c3)CC(=O)N4)ncc2C(F)(F)F)n1)S(C)(=O)=O
Technique: competition with immobilised ligand
Concentration: 1 µM
Endpoint: remaining binding
Dual specificity protein kinase CLK3 (CLK3, Homo sapiens, UniProt P49761); cell-free assay: 12%
Tyrosine-protein kinase ABL1, phosphorylated (ABL1, Homo sapiens, UniProt P00519, E255K); binding: 34%
Ephrin type-B receptor 4 (EPHB4, Homo sapiens, UniProt P54760); cell-free assay: 96%
Serine/threonine-protein kinase SIK3 (SIK3, Homo sapiens, UniProt Q9Y2K2); cell-free assay: 82%
Ribosomal protein S6 kinase alpha-5, N-terminal kinase domain (RPS6KA5, Homo sapiens, UniProt O75582); cell-free assay: 96%
Dual specificity mitogen-activated protein kinase kinase 3 (MAP2K3, Homo sapiens, UniProt P46734); cell-free assay: 58%
Receptor tyrosine-protein kinase erbB-2 (ERBB2, Homo sapiens, UniProt P04626); cell-free assay: 100%
Tyrosine-protein kinase Fyn (FYN, Homo sapiens, UniProt P06241); cell-free assay: 59%
MAP/microtubule affinity-regulating kinase 3 (MARK3, Homo sapiens, UniProt P27448); cell-free assay: 52%
Serine/threonine-protein kinase PAK 3 (PAK3, Homo sapiens, UniProt O75914); cell-free assay: 88%
Serine/threonine-protein kinase D2 (PRKD2, Homo sapiens, UniProt Q9BZL6); cell-free assay: 92%
Serine/threonine-protein kinase ULK3 (ULK3, Homo sapiens, UniProt Q6PHR2); cell-free assay: 25%
Serine/threonine-protein kinase OSR1 (OXSR1, Homo sapiens, UniProt O95747); cell-free assay: 86%
Phosphatidylinositol 4,5-bisphosphate 3-kinase catalytic subunit alpha isoform (PIK3CA, Homo sapiens, UniProt P42336); cell-free assay: 100%
Mitogen-activated protein kinase 10 (MAPK10, Homo sapiens, UniProt P53779); cell-free assay: 56%

Some of these lines once more (set 1):
CCOC(=O)[C@H](CCc1ccccc1)N[C@@H](C)C(=O)N1Cc2ccccc2C[C@H]1C(=O)O: 0.3
O=[N+]([O-])c1cccc2cn[nH]c12: -0.0273
O=c1[nH]cnc2c1ncn2[C@H]1CC[C@@H](CO)O1: -0.09
O=c1cnn([C@@H]2O[C@H](CO)[C@@H](O)[C@H]2O)c(=O)[nH]1: 0.21
